{"data": "Measured values from different studies", "note": "Each line is one published result; not all experiments were run side by side."}
{"Compound": "COC1CN([C@H]2CC[C@H]([C@@]3(C)Oc4c(Cl)cc(C(=O)NCc5c(SC)cc(C)[nH]c5=O)c(C)c4O3)CC2)C1", "test": "RNA-seq, measured: PLD2 mouse homolog", "system": "mouse, HT-1376 xenograft, whole blood", "conditions": "dose not given", "scale": "reference: vehicle", "endpoint": "log2 fold change", "result": 1.08}
{"Compound": "Cc1cccc2c1N(C(=O)n1ccnn1)CC2", "tested on": "Arabidopsis thaliana", "system": "wild type, seedlings", "conditions": "0.1 µM, continuous red light, added: 0.3 µM karrikin KAR2", "endpoint": "hypocotyl length", "result": "12.9 mm"}
{"Compound": "CCN(CC)CC(=O)Nc1cccc(-n2cc(-c3ccc4ccc(-c5cn(-c6cccc(NC(=O)CN(CC)CC)c6)nn5)cc4c3)nn2)c1", "tested on": "RCC4", "test": "PCR angiogenesis array, measured: SPHK1", "conditions": "5 x IC50, 6 h, normoxia", "scale": "reference: untreated", "endpoint": "fold regulation", "result": -1.44}
{"Compound": "Cc1ncsc1-c1ccc(C(C)NC(=O)C2CC(O)CN2C(=O)C(NC(=O)CCCCCCCCCCN2CCCC(Nc3ncc(Cl)c(Nc4ccccc4S(=O)(=O)C(C)C)n3)C2)C(C)(C)C)cc1 (centres unmarked)", "tested on": "22Rv1", "test": "RNA-seq, measured: TRMT1L mRNA", "conditions": "concentration not given", "scale": "reference: DMSO", "endpoint": "log2 fold change", "result": -1.31}
{"Compound": "C=CC(=O)N1[C@H](c2ccc3c(c2)OCO3)c2[nH]c3ccccc3c2C[C@@H]1C(=O)N1CCN(C)CC1", "tested on": "human cyclin E1 N112C-3xFLAG:CDK2", "test": "co-IP with TMT proteomics, measured: ATAD3A", "conditions": "concentration not given, Q9NVI7", "scale": "reference: wild type DMSO", "endpoint": "relative co-enrichment", "result": "117%"}
{"Compound": "Cn1ncc2cc(-c3cncc(Cl)c3N3CCC4(CCNC4=O)CC3)ccc21", "tested on": "LS174T", "test": "gene expression, microarray, measured: KRT17 mRNA", "conditions": "concentration not given, 24 h", "scale": "reference: untreated cells", "endpoint": "log2 fold change", "result": -1.28}
{"Compound": "CC(C)c1ccc(N(C)c2ccc3c(c2)OCC[C@H]3CNc2cnccc2C(=O)O)cc1", "tested on": "KYSE-30", "test": "cell growth or viability, ATP luminescence", "conditions": "7 days", "endpoint": "IC50", "result": "2.43 nM"}
{"Compound": "c1ccc(-c2n[nH]cc2-c2ccnc3ccccc23)nc1", "tested on": "CAK1 (Candida albicans)", "test": "kinase binding, MIB/MS competition", "system": "Candida albicans lysate", "conditions": "1 µM", "scale": "reference: DMSO", "endpoint": "log2 fold change", "result": 0.11}
{"Compound": "C=CC(=O)Nc1cccc(Cn2ncc3cnc(Nc4cnn(CCOC)c4)nc32)c1", "tested on": "TAOK2 human", "test": "binding, KINOMEscan", "conditions": "100 nM", "scale": "lower = stronger binding", "endpoint": "percent of control", "result": "82%"}
{"Compound": "CN1CCCNC(=O)c2cccc(c2)C(=O)NCCCN(C)CCCNc2cccc3c2C(=O)c2cccc(c2C3=O)NCCC1", "tested on": "SAS", "test": "RNA-Seq, measured: TBK1 mRNA", "conditions": "1 µM, 6 h", "scale": "reference: untreated cells", "endpoint": "log2 fold change", "result": -0.829}
{"Compound": "Nc1ncc(-c2cc(-c3cnn(CC(F)(F)F)c3)ncc2F)nc1C(=O)NC1CNCC(F)C1 (centres unmarked)", "tested on": "RIPK1", "test": "KINOMEscan", "conditions": "1 µM", "scale": "reference: DMSO control", "endpoint": "remaining binding", "result": "100%"}
{"Compound": "CNS(=O)(=O)Nc1nccc(Cc2c(C)c3ccc(Oc4ncccc4F)cc3oc2=O)c1F", "tested on": "CAL-12T", "test": "cell viability", "conditions": "7 days", "endpoint": "IC50", "result": "> 1000 nM"}
{"Compound": "N=C(N)NCCC[C@@H]1NC(=O)[C@H](CCCNC(=N)N)NC(=O)[C@@H](CCCNC(=N)N)NC(=O)[C@@H](CCCNC(=N)N)NC(=O)[C@@H](C(c2ccccc2)c2ccccc2)NC(=O)[C@H](Cc2c[nH]c3ccccc23)NC(=O)[C@@H](C(c2ccccc2)c2ccccc2)NC1=O", "tested on": "Candida albicans", "system": "ATCC 60193", "conditions": "2 x MIC, 24 h, preformed biofilm", "endpoint": "biofilm mass reduction", "result": "70%"}
{"Compound": "C=C(NC(=O)c1csc(-c2nc3c(cc2O)-c2nc(cs2)C(=O)NC(C(C)O)C(=O)NC(=C(C)OC)c2nc(cs2)C(=O)NC2c4nc(cs4)C(=O)NC(COC(=O)c4c5c6c(cccc6n4O)COC(=O)C(OC4CC(C)(O)C(N(C)C)C(C)O4)C2OC5)c2nc-3cs2)n1)C(N)=O (centres unmarked)", "tested on": "Streptococcus pneumoniae", "system": "-4, immunocompromised mice, lung", "conditions": "2 mg/kg/day once daily, 24 h post-dose", "endpoint": "lung bacterial load", "result": "6.81 log10 CFU/lung"}
{"note": "For quick reference, copied from above:"}
{"Compound": "Cn1ncc2cc(-c3cncc(Cl)c3N3CCC4(CCNC4=O)CC3)ccc21", "tested on": "LS174T", "test": "gene expression, microarray, measured: KRT17 mRNA", "conditions": "concentration not given, 24 h", "scale": "reference: untreated cells", "endpoint": "log2 fold change", "result": -1.28}
